Results of several laboratories.
Lines come from different studies, so protocols differ. ± marks the error that the study gave. Values after ≈ are worked out from the molar mass of the structure shown.
UniProt P34914, sequence (whole entry, looked up): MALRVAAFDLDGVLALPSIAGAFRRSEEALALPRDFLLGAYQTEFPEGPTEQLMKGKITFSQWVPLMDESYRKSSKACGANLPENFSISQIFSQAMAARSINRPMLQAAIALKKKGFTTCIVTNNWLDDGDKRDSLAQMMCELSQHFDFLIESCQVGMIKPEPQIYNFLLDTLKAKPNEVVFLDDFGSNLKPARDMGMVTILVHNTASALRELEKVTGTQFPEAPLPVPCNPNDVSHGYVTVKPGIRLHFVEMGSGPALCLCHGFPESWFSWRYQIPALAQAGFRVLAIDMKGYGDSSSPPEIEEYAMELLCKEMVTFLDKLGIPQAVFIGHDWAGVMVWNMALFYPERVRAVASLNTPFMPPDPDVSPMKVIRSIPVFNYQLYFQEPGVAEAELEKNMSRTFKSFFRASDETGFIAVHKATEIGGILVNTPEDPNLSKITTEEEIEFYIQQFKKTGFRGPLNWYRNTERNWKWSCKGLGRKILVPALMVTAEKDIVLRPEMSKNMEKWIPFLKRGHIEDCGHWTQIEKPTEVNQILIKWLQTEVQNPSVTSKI

The Cmax of C(#Cc1c[nH]c2nccc(-c3ccncc3)c12)c1cccnc1 is reported as 1070 ± 663 ng/mL (mouse C57BL/6, male; oral, 20 mg/kg).
N#Cc1ccc(-c2csc(CNC(=O)C34CC(CN(C(=O)COCCF)C3)C4)n2)cc1 has an EC50 of 60 ± 18 nM (Plasmodium falciparum; 3D7; 72 h, asexual blood stage).
With Cc1cc(OCc2nnc(SC3CCCC3)n2-c2cccnc2)ccc1-c1ccc(S(C)(=O)=O)cc1 the CC50 was 6350 nM (MDA-MB-231).
CC(C)(C)n1nc(-c2cnc3cc(OC4CC4)ccc3c2)c(C(N)=O)c1N gave an inhibition of 31% (Plasmodium yoelii; 0.1 µM, gametocytes).
For N#CC1=C2N=C(N)c3ccccc3N2C2=C(C(=O)CCC2)C1c1ccc(-c2ccccc2)cc1 (stereo not drawn), the EC50 was 2200 nM (HMC3 human microglial cells; pHrodo-myelin phagocytosis, activator; 48 h).
With O=C(Nc1ccc(-c2cnc3ccccc3c2)cc1)C1CCN(Cc2cccnc2)CC1 the solubility was 63 to 125 µM (≈ 26.6 to 52.8 µg/mL) (sodium phosphate buffer, 1% DMSO; pH 7.4).
For O=C(Nc1ccc2c(O)cc(S(=O)(=O)O)cc2c1)Nc1ccc2c(O)cc(S(=O)(=O)O)cc2c1, the Kd was 671 nM (calf thymus histone H3; binding, SPR).
Cc1ccc(S(=O)(=O)Nc2c(N3CCC(NC(=O)Nc4cc(F)cc(F)c4)CC3)c(=O)c2=O)cc1 has an IC50 of 381 ± 35.2 nM (Ephx2 (Mus musculus, UniProt P34914)).
O=C(Nc1ccc(-c2ccc3ccccc3n2)cc1)C1CCN(Cc2ccc(F)cc2)CC1 has a solubility of 31 to 63 µM (≈ 13.6 to 27.7 µg/mL) (sodium phosphate buffer, 1% DMSO; pH 7.4).
For CC(C)(NC(=O)O[C@@H]1CN2CCC1CC2)c1csc(-c2ccc(F)cc2)n1, the inhibition was < 50% (other methyltransferases; 50 µM).
The inhibition of CCOc1ccc2cc(-c3nn(C(C)(C)C)c(N)c3C(N)=O)ccc2c1 is reported as 55% (Plasmodium yoelii; 0.1 µM, gametocytes).
The ED50 of NS(=O)(=O)NC[C@H]1COc2cc(F)ccc2O1 is reported as 160 to 200 mg/kg (maximal electroshock seizure; mouse; oral).

Excerpt of the above:
For CC(C)(NC(=O)O[C@@H]1CN2CCC1CC2)c1csc(-c2ccc(F)cc2)n1, the inhibition was < 50% (other methyltransferases; 50 µM).
